# Assay results gathered from unrelated publications.
# Every numbered part comes from another study and shows a few of its results, in no order. Positions count from the first letter of the parent shown.

# Set 1
# Target: RNA binding protein fox-1 homolog 2, RRM domain, GST-SBP tag (RBFOX2, Homo sapiens, UniProt O43251-10, residues 100-194)
# Technique: RNA Bind-n-Seq
# Molecule type: RNA
# Medium: in vitro
# Tested at: 365 nM
# Setting: natural RNA segment, single round, ends assumed
# Baseline: no-protein control
# Direction: higher = stronger binding
# Shared flanks, not repeated: GGGAGUUCUACAGUCCGACGAUC … UGGAAUUCUCGGGUGCCAA
# Target sequence (chain): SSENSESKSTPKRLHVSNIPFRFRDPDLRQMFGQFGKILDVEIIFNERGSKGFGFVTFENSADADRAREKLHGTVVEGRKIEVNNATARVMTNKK
Oligonucleotide,RBNS enrichment (R)
AGGUGCCACAGAGGGGCAGGCGCACCAGGGGAGGGAGUGCUCACAAGUGAGCCAUAUUUAUUGUCUUUAGGAAAUCACUAAUUGCUCUUUGACUGCACUGUGGGUGAGUG,0.976
UGUUGCUGCAGAUAAAUGAUGAUUGUCGUGGGAUAUCUGGAUCACUGAGCUCUGUGCUUUCAUUCCUAGAGAUGUUUCUCAUUCCCAUUUAGUGAAAUGCUGUUGCCCCA,0.665
UAACCUAAUUUGUCCAAAUCACCCCAAAACCACCAUCUCUGACGUAAGCUUCCAUGCGACAGCCUGAUCCGUUUCCCUGGACAGGUCUCUUUCCUGGAAUGCAGCCCAGG,0.811
CACUCUUUAUUCUGAGACAGGGUCUCCCCAUGUUGCCCAGGCUGGUCUUGAACAACUGCCUCACUCUAUAGCCCAAGUUAUCUAGGUCUGAUAGUUGGGAUAAAGGGCUC,0.25
AGCUGGCUAGAGAUUUAUUUGUUGUAAAUGCUGUAUAGAUUUGGUUUUCCUUUCUUUACUUACCCUGGUUUGGAUUUUUUUUUUUUUUCUUUUGAAUGGAUUUAUGCUGU,0.467
UACUCACUACUAAACUCUACCAAGAAUGGAAACAAAGAAUAUUUUCUGAAGAUUUUUUUGAAGAUUAAUUUAUACCCUAUAAAAUAAAACUUGUUAGCUUCGAUGAAGUC,0.792
UCUCAUCUUGUCAGAGCCCUAUGUGCUAUAUCCACAUUUAUAUAUAUUUUUUCUAGCCUAUGUAGUUGUUCAGCUUUUAACAAAUAACUCUGGCAGUAUUUUAAACAUGC,0.732
UUUAAGGCAGUUCCGUUAAGGGUUUUUGUUUUUAAACUUUUUUUUGCCAUCCAUCCUGUGCAAUAUGCCGUGUAGAAUAUUUGUCUUAAAAUUCAAGGCCACAAAAACAA,0.443
UGGUCUAUUUUAACCUUGAAAGUAAAAAUGUAUAUUUUUUCACUACAAGUACAUUGAACAGUAAAAAGUGUAACAGCAAAGUAUAUAUUUGAUGCCUUCUGUCUUUUCAU,0.476
CUUCGCUAAUAUUUUAAACAGUCCUGUAAAAAACCAAAAAGGACUUUUUGUAUAGAAAGCACUACCCUAAGCCAUGAAGAACUCCAUGCUUUGCUAACCAAGAUAACUGU,0.325
AUUUUGUGAGUGUGUGAGCAUUUGAUUGGAAAUAAGAAAGUUAUUAAGUAAAUUUUUCGUUUUACUUUUUCCACAGCAGCUAACGUGUAGGGAGACAUUAAACCCACACC,0.622

# Set 2
# Target: CCNB1, cyclin fold, Cln2 fusion (human)
# Technique: yeast growth competition, sequencing
# Medium: yeast
# Setting: strong parent motif
# Baseline: not given
# Direction: higher = stronger binding
# Starting sequence: INSM1 docking peptide (human); PKAIRKLHFEDEV
Substitution,normalised enrichment score
K6A,1.7
F9H,0.207
R5T,1.16
A3M,1.79
D11N,1.54
E10T,1.52
R5D,0.0803

# Set 3
# Target: Histone acetyltransferase KAT6A, winged helix 1, GST fusion (KAT6A, Homo sapiens, UniProt Q92794, residues 1-85)
# Technique: protein binding microarray
# Molecule type: double-stranded DNA, one strand shown
# Medium: in vitro
# Tested at: not given
# Setting: 8-mer, flanks averaged, mean of 2 arrays, mostly near background
# Baseline: not given
# Direction: higher = stronger binding
# Residues (chain): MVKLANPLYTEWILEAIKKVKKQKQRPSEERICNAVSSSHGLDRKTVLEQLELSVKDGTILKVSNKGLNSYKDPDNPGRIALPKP
Oligonucleotide,E-score
CAGCGACA,-0.0532
AGTTCCGA,0.112
CAGGTTAG,-0.0679
CATTCGCG,0.27
ACAACCTA,-0.258
CCATGGTA,-0.142
GCGGTCGA,0.177
TATCCTAA,-0.131
AGCTGGGC,-0.126
CCCCTAGC,-0.221
AGCGACTA,-0.0915

# Set 4
# Substance: PhoQ, residues 284 288 289 292 302 303 AEGLLW
# Technique: Sort-seq
# Refers to: YFP reporter
# Medium: E. coli
# Setting: PhoQ-PhoP variant library
# With: 10 µM Mg2+
# Baseline: high Mg2+ state
# Direction: higher = stronger signaling
target,fold induction
"PhoP, residues 12 14 15 18 19 TQALL (Escherichia coli, UniProt P23836)",4.6
"PhoP, residues 12 14 15 18 19 QYFSL (Escherichia coli, UniProt P23836)",3.26
"PhoP, residues 12 14 15 18 19 NYFRM (Escherichia coli, UniProt P23836)",6.17

# Repeated from above (set 1):
Oligonucleotide,RBNS enrichment (R)
UAACCUAAUUUGUCCAAAUCACCCCAAAACCACCAUCUCUGACGUAAGCUUCCAUGCGACAGCCUGAUCCGUUUCCCUGGACAGGUCUCUUUCCUGGAAUGCAGCCCAGG,0.811
AGGUGCCACAGAGGGGCAGGCGCACCAGGGGAGGGAGUGCUCACAAGUGAGCCAUAUUUAUUGUCUUUAGGAAAUCACUAAUUGCUCUUUGACUGCACUGUGGGUGAGUG,0.976
